Measured values of several laboratories.
Parts stem from different laboratories: compare values within a part only. Substitutions count along the parent as printed.

Series 1 — method: RNA Bind-n-Seq; form: RNA; sample: in vitro; tested at: not given; reference: input RNA pool; direction: higher = stronger binding
Target: RING finger protein unkempt homolog, zinc fingers 1-6, GST-SBP tag (UNK, Homo sapiens, UniProt Q9C0B0, residues 30-357)
Sequence of UniProt Q9C0B0 (30-357, looked up): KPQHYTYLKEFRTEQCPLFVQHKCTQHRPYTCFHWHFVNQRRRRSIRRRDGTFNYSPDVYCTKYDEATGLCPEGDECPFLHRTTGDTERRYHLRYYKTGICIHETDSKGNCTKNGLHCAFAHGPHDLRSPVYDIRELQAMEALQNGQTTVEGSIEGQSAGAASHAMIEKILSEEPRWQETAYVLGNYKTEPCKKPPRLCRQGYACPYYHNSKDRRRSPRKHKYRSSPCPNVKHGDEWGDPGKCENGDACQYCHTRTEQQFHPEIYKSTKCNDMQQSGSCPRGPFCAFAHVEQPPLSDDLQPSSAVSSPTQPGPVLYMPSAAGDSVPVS
Notes: RNA with constant flanks, human and mouse sites, ends assumed
| Strand | bound/input enrichment [ratio] |
| --- | --- |
| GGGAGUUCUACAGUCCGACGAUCAGUUUAAGCCUGACACACAGGCUUUGGUCCUCACUGAGCUGUCUCCAAGACUGGAACUACUUAGUGACUCGGCAAAUUUUCUGCCCCCCACCCCUCAUCAAAGCUGCUAGUUCAGAUGUUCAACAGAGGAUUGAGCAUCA | 4.06 |
| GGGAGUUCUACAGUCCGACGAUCUCAUCUUCUGUUGCUUUUAAAUUAUCUGACAAUGGAGACUCUAUUCCUUAUACCAUCAAUAGGUAUUUGAGAGACUACCAAAGAGAAGGAACCCGGUUUCUUUAUGGACACUACAUCCAUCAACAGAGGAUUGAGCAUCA | 0.27 |
| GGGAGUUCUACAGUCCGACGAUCACUAAAAGCAAAUGGGGAACGAUCCCUCGGGGCCCAGCAUCUCAAUUUUAUAUAACUCCCAAUACAUCCCUAAGUCCUCGACAGAGUGGACCACAGUGGAAAGGCCCCAAAGCAACUGUUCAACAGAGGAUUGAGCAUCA | 0.236 |
| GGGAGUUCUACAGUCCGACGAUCGACGAUGUCAUACAGCGCAAGAGGGAGCUGUGGCCACCUGAGAAGCUUCAAGAGAUAGAGGAAUUCAAAGAGAGGUUACGGAAGCGGCGGGAGGAGAAGCUCCUUCGCGACGCCCAGCAGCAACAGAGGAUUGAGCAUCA | 0.174 |
| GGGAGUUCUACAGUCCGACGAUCAUCAUCGAGGCAUUUUAUGGAGGCUCCCAUCGACAGCUGGUAGAGCUGCUCCGAGAAGAAUUAGAUGACUGCGUGUUGUACACUCUUCCUGCAAAGAAAUGGCACUGGAGAGCACGCACACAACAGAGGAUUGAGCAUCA | 0.456 |
| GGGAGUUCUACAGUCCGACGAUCAGUGCCUAUGAUUACACAAUACCACCUAUGGAGAAAGCUGUUGUGAAAACGGACAUUCAGAUAGCGCUCCCUUCUGGGUGUUAUGGAAGAGUGGCUCCACGGUCAGGCUUGGCUGCAAAACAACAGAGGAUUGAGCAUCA | 0.193 |
| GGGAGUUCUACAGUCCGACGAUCGCAGCGGCGGCAGCUGGUGCGGCUUCUGGGCUGCCGGGUCCAGUGGCACAGGGAUUGAAGGAGGCGUUGGUGGAUACCCUCACCGGAAUCCUGUCCCCGGUGCAGGAGGUGCGGGCGGCUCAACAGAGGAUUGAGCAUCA | 0.154 |
| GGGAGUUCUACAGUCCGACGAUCUCUUGUUCCUCCAGCCUAAGUGCUCUGAGCCUGGAUGAGCCAUUUAUACAGAAAGAUGUAGAAUUAAGAAUCAUGCCUCCAGUUCAGGAAAACGACAAUGGGAAUGAAACUGAAUCAGAACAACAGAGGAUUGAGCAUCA | 0.129 |
| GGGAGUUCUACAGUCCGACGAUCCCAAAGGAGGUGUGCAUUAAAACAUUUGAUGAUCAUAACACCAGUAUAAUCAGAUUUGUGGGGAGUGGGAUCAAGGCACUUAAUCCCCCGAUGAUUUCAGUGUGCGCUCAACAGUGUCUACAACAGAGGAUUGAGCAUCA | 0.253 |
| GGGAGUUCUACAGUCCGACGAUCUUUGUAGAAAUCCUUGUCCCGGUGGCCGCUGCUGUCAAAAAUGAAGUCAACGUCCCCUGCCUCAGGAACUUUGUGGAGAGCCUGUACGAUACGACGUUGGAACUCUCCUCUCGGAAAAAGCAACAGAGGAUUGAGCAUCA | 0.184 |
| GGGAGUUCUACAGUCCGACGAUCCCCGCCCGCCCGCCUCCCUGCCGGCCCAUCCACACCCUGCGUCCACACCACUUCCAACCUCAUAGGAGCCGAUGUAUUUAUUUUCCUUGAGUUUUUAUUUAUGCUGUAACCUGUAUCAAGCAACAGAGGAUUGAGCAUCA | 0.266 |

Series 2 — method: competition protein-binding microarray; form: double-stranded DNA, one strand shown; sample: in vitro; tested at: 2 µM; with: Cbf1 competitor, 0.05 µM; direction: higher = stronger binding
Target: Phosphate system positive regulatory protein PHO4, full length, GST-tagged (PHO4, Saccharomyces cerevisiae, UniProt P07270, residues 1-312)
Notes: whole 60-bp probe, lowest competitor level
Construct (chain): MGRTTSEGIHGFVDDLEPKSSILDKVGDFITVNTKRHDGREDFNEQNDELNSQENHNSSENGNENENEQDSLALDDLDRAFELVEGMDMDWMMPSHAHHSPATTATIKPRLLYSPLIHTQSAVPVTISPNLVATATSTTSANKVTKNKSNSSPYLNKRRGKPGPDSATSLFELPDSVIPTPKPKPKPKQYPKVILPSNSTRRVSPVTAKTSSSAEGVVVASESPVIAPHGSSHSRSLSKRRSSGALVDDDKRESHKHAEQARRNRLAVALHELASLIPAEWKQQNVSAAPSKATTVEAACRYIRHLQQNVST
| Strand | fluorescence intensity [a.u.] |
| --- | --- |
| GGCACTAGTTTGTGTCCCGTGGTGATTGCTGTATAAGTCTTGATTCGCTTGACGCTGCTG | 8200 |
| CTTCTGTAAATTTGGATTGTGGGTGGACGCGCCCCGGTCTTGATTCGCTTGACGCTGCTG | 4230 |
| TGTGTCCGGAGAAACCTCGTGCGGAAAACAGCGCAAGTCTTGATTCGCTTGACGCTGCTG | 11900 |
| CTTCTGTAAATTTTTCACGTGAGTTGACGCGCCCCGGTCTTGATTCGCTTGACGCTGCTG | 9780 |
| CTTTCCCGATCTTGATCAGTGGGTGTAGCACATTTGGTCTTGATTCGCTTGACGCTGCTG | 4000 |
| AGTATAGAGTTTCGGCACGGGTGGCAGCGTTCAAAGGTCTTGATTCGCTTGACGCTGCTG | 9420 |
| ATTGGGCCATCAGCAGACGTGGCCTTGGCTGGACGCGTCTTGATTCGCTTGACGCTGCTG | 3690 |
| GTCGTCATCCTCCAAGCCGTGATGGTCATCTTCTTCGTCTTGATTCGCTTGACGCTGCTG | 3720 |
| AAAAGAGCGCAAGTACACATGCGATGCAAGGGCGGCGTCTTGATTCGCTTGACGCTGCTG | 7320 |
| TTCAGGGCTGCTCACAACGTGATGGATTTGAATTGAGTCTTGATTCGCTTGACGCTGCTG | 11700 |
| CTTTCCCGATCTTGATCTGTGGGTGTAGCACATTTGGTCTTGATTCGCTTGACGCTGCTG | 4480 |
| GAGATTTAGCCTTTGACCGTGCCGATAGTTGTTTTCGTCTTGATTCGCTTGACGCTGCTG | 6480 |
| GTAAAACGCCTCTTCCACGTTGATTGCTTGCTTAGCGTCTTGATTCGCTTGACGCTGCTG | 10200 |
| GTCTTGTCTCATTGTCACATTACTTTCCCCACTTCAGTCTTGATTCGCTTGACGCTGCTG | 4780 |
| TTTCTGAGCGCCTACCACGTGGAGAGAGCTAAGTGCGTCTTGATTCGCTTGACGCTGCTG | 18100 |
| CTTCTGTAAATTTTTCACGTGACATGAAGCGCCCCGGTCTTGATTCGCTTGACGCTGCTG | 10200 |

Series 3 — target: CEP164, C-terminal peptide (human); method: DHFR complementation, deep sequencing; sample: yeast; reference: wild type; direction: higher = weaker binding
Notes: single substitutions, model-inferred values
Starting sequence: PDZK1, PDZ domain 2 (human); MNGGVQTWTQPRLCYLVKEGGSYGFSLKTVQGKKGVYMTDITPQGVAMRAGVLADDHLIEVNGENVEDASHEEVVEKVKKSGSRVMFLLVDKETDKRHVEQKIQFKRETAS; partner HNRVKVYRF
| Substitution | binding free energy change [kcal/mol] |
| --- | --- |
| M38I | 0.285 |
| F25M | 1.01 |
| Y15G | 0.435 |
| W8R | -0.118 |
| D95R | -0.333 |
| G51I | 1.19 |
| L58E | 1.01 |
| S22A | 0.158 |
| L13P | 0.211 |
| A50T | 0.501 |
| Q31Y | 0.0236 |
| R49G | 0.511 |
| E19Q | 0.05 |
| D95W | -0.361 |
| S83D | -0.0486 |
| T42Q | 0.16 |
| V78Y | 2.17 |

Series 4 — method: protein-binding microarray; form: double-stranded DNA, one strand shown; sample: in vitro; tested at: 250 nM; notes: 60-bp whole probe; with: salmon DNA 0.4 mg/ml; reference: random background probes; direction: higher = stronger binding; all sequences stand within: GCCTAGCAC … GTCTTGATTCGCTTGACGCTGCTG
Target: Interferon regulatory factor 7, full length, phosphomimetic (IRF7, Homo sapiens, UniProt Q92985, residues 1-503, S101K/S471D/S472D/S475D/S476D/S477D/S483D/S484D/S487D)
Residues (chain): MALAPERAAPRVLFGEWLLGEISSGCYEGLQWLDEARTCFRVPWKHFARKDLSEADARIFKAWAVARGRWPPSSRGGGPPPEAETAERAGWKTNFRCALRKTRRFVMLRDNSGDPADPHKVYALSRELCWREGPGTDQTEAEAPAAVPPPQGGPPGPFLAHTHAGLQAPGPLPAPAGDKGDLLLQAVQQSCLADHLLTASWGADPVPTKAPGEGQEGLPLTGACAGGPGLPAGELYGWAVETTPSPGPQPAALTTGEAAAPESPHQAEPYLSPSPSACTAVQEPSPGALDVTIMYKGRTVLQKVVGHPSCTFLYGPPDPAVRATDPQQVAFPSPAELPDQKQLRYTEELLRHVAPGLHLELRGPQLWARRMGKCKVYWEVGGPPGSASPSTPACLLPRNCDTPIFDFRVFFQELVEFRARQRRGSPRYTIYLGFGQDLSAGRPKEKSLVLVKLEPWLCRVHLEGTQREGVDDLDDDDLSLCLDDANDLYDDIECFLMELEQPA
| Strand | log fluorescence [z-score] |
| --- | --- |
| GACGGTCTCGGTCTCGGGACGTGCTAG | 0.872 |
| TTAGGTCTCCTTATCCTTCAGTGCTAG | 0.189 |
| TCAGATCACCGATTTCCTACTGTGCTA | 0.12 |
| TTAGGTTTCGACACCGGGTTAGTGCTA | 2.98 |
| CTAGATATCGGGTTTCGATTAGTGCTA | 6.97 |
| TTAGATATCAGAATCGATTAGTGCTAG | 0.59 |
| GACGGTTTCGGTTTCGAGACGTGCTAG | 14.8 |
| GACGGTCTCGGAGTGGGGACGTGCTAG | -0.295 |
| CGTATCTTCATTGTCATGTAGTGCTAG | 1.73 |
| TTTCTCTGCTCTTTTCAACAAGTGCTA | 1.68 |
| CAGGAATTGAAAATTAGTGTTGTGCTA | -0.614 |
| TCATCTCTTTCCTTCTTACTGTGCTAG | 1.39 |
| GACGATATCAGACTGGCGACGTGCTAG | -0.487 |
| ATGTGTTTACATATGTTTTTGTGCTAG | 0.431 |
| GACGGTCTCTTTTTCCTGACGTGCTAG | 1.19 |
| GTGTGTTTGAGTCTTCTCCTGTGCTAG | -0.38 |
| CAATATTAGAGTCTCAACCCGTGCTAG | -0.0462 |
| TTACATTTTAATTTTATTTGGTGCTAG | 0.543 |
| TCATGACTCTTTCTGTCACTGTGCTAG | 0.185 |
| GACGAATCCAGTTTCGAGACGTGCTAG | 4.82 |
| GATGGTTTCGACTTTCGGGACGTGCTA | 11.2 |

Series 5 — target: CCNB2, cyclin fold, Cln2 fusion (human); method: yeast growth competition, sequencing; sample: yeast; notes: weak parent motif; reference: not given; direction: higher = stronger binding
Starting sequence: RP1L1 docking peptide (human); TLGLGPLSFTLED; partner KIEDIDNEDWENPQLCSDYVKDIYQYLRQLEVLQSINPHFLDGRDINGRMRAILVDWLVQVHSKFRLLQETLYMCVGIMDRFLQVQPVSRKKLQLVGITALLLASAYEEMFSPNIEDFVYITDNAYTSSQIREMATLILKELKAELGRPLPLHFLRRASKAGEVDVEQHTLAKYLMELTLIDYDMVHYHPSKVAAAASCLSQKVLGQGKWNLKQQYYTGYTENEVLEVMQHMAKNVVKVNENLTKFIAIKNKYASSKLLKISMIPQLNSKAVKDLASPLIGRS
| Substitution | normalised enrichment score |
| --- | --- |
| TLGLGPLSATLED [F9A] | -0.526 |
| TLALGPLSFTLED [G3A] | -0.888 |
| TLGLGPASFTLED [L7A] | -0.533 |
| ALGLGPLSFTLED [T1A] | -0.538 |
| TLGLGPLSFTAED [L11A] | -0.998 |
| TLGLGPLSFTLEA [D13A] | -1.17 |
| TLGLAPLSFTLED [G5A] | -0.584 |

Single results of other studies
| Molecule | target | assay | test system | setting | how to read | endpoint | result |
| --- | --- | --- | --- | --- | --- | --- | --- |
| PhoQ, residues 284 288 289 292 302 303 NLMGRA | PhoP, residues 12 14 15 18 19 SPWRL (Escherichia coli, UniProt P23836) | Sort-seq, measured: YFP reporter | E. coli | PhoQ-PhoP variant library, with: 10 µM Mg2+ | reference: high Mg2+ state, higher = stronger signaling | fold induction | 7.34 |
